Results gathered from unrelated publications.
Every numbered part comes from another study and shows a few of its results, in no order. Substitutions count along the parent as printed.

Series 1 — technique: universal PBM; molecule type: double-stranded DNA, one strand shown; matrix: in vitro; tested at: not given; reading: higher = stronger binding
Target: Sal-like protein 4, full length isoform B (SALL4, Homo sapiens, UniProt Q9UJQ4-2, residues 1-616)
Setting: 8-mer, flanks averaged, mean of replicates
For `CCTAACAA`, the E-score was 0.169.
For `ACAACTGT`, the E-score was 0.0138.
`CTAACACA` gave an E-score of 0.163.
`AGTAAGGA` gave an E-score of 0.038.
For `TGCGACAA`, the E-score was 0.0606.
For `ATCGTGCC`, the E-score was -0.0541.
The E-score of `CCTGTAGA` is reported as 0.0753.
`CTTTCCAA` gave an E-score of 0.0167.
`GAATCTGC` has an E-score of -0.141.
The E-score of `AACGAGAC` is reported as -0.0895.
`AGTCAAGC` has an E-score of -0.195.
`GAGTAGGA` gave an E-score of -0.117.
With `AGCCGGAT` the E-score was -0.139.
For `AGACTTAT`, the E-score was 0.215.
With `GGTCGGAC` the E-score was -0.332.
For `CTCCGCGA`, the E-score was -0.312.
The E-score of `GTAACCAA` is reported as -0.0746.
`AACACCCA` gave an E-score of -0.132.
`GACTAAGC` has an E-score of -0.2.
For `AGAAGATC`, the E-score was -0.0623.
For `CCGCGTTA`, the E-score was -0.144.
The E-score of `CTTTCAGC` is reported as -0.0795.

Series 2 — target: CREB5, bZIP domain (human); technique: DHFR protein complementation; matrix: yeast; reference: wild-type JUN-FOS pair; reading: higher = stronger binding
Setting: single substitutions, most at no-binding floor
Starting sequence: JUN, bZIP domain (human); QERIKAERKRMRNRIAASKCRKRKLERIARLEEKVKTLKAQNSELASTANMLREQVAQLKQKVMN; partner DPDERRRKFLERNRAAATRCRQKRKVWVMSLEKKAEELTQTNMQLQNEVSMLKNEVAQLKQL
`S47G` has a binding fitness of -0.351 natural log.
`A29F` gave a binding fitness of -0.26 natural log.
With `R30E` the binding fitness was -0.0838 natural log.
With `R53F` the binding fitness was -1.32 natural log.
`Q41R` gave a binding fitness of -0.399 natural log.
The binding fitness of `A57V` is reported as -0.251 natural log.
`M51C` has a binding fitness of -0.382 natural log.
For `Q41V`, the binding fitness was -0.502 natural log.
For `V56R`, the binding fitness was -0.725 natural log.
For `A40E`, the binding fitness was -0.188 natural log.
`L31I` has a binding fitness of -0.624 natural log.
The binding fitness of `V56A` is reported as -0.527 natural log.
With `S43Y` the binding fitness was -0.415 natural log.
`N42I` has a binding fitness of -1.26 natural log.
The binding fitness of `V35K` is reported as -1.38 natural log.
The binding fitness of `T37W` is reported as -0.286 natural log.
`K36D` has a binding fitness of -0.294 natural log.
`T37V` has a binding fitness of -0.297 natural log.
The binding fitness of `T37A` is reported as -0.2 natural log.
The binding fitness of `K34L` is reported as -0.224 natural log.
`A57Q` has a binding fitness of -0.39 natural log.
`A29T` gave a binding fitness of -0.333 natural log.
`L45M` gave a binding fitness of -0.845 natural log.
With `E54R` the binding fitness was -0.41 natural log.
The binding fitness of `T37C` is reported as -0.242 natural log.

Series 3 — technique: RNA Bind-n-Seq; molecule type: RNA; matrix: in vitro; tested at: 200 nM; setting: whole 134-nt RNA, ends assumed; together with: 150 mM KCl; reference: input library; reading: higher = stronger binding
Target: Ras GTPase-activating protein-binding protein 1, full length (G3BP1, Homo sapiens, UniProt Q13283)
UniProt Q13283, sequence (whole entry, looked up): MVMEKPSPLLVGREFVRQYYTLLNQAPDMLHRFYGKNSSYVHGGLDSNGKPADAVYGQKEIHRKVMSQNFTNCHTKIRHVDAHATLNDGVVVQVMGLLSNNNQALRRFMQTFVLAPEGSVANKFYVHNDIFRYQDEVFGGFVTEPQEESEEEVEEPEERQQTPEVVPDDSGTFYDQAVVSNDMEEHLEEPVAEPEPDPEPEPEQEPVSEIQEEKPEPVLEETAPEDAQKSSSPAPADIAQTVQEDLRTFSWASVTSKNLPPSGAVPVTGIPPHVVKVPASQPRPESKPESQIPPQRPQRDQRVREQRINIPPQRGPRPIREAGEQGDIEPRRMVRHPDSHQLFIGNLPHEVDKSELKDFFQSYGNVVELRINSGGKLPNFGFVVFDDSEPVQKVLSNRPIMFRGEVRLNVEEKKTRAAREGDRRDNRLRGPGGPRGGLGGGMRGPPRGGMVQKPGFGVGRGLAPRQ
Constant ends, left off below: GGGAGUUCUACAGUCCGACGAUC … UGGAAUUCUCGGGUGUCAAGG
With `GCAGGAAGUAAAAACAAAUGGAAAAACUUCGGAUAGUGGCAGGGGUGGGGGUUGCUAAGGAAAGGGUGGGAUGGGAGUGGGUAAAGAGUU` the log2 enrichment was 0.515.
`UCAAGUCCUGUGCUACACAUCGUAUGUACCGAAUCGGAAAGGAGGAAAAAAAGGAAAGUAUUAUGUUACGCCGUUCGGAUCUGCACUUCC` has a log2 enrichment of -0.892.
`CACAGACAACACGCACCCACACAGACACAGAGGGAAGGGGUUGGGAUGGGGACAGGGUGCACAGCAGGGCGGGCUAGGACCCCAGCCCCU` has a log2 enrichment of 1.99.
`CUCAAGUCCUGUGCUACACAUCGUAUGUACCGAAUCGGGAAAGGAAAGGAAAGGAAAGUAUUAUGUUACGCCGUUCGGAUCUGCACUUCC` gave a log2 enrichment of -0.816.
With `UGGCCCUGGUGGCAUGCGGGGAGGAAGAGGUGGCCUCAUGGAUCGUGGUGGUCCCGGUGGAAUGUUCAGAGGUGUCCGUGGUGGAGACAG` the log2 enrichment was 0.414.
`GUCCUGUGCUACACAUCGUAUGUACCGAAUCGGCCCCCGGGCCCCCGGGGCCCCCGGGGAAAGUAUUAUGUUACGCCGUUCGGAUCUGCA` has a log2 enrichment of -1.03.
For `UGGGAGGUGGAUUUUGUUUAUUUUUUUAGCUCAUUUCCAGGGGUGGGAAUUUUUUUUUAAUAUGUGUCAUGAAUAAAGAUGUUUUUGAAA`, the log2 enrichment was 0.071.
`UUUGAAGGUGAUUUCUGGCCCAAUGUGUUAGAAGAGAGCAUUAAGGAACUAGAACAAGAAGAAGAGGAGAGGAAAAAGGAAGAGAGCACU` gave a log2 enrichment of -0.247.
The log2 enrichment of `CACAGACAACACGCACCGACACAGACACAGAGGGAAGGGGUUGGGAUGGGGACAGGGUGCACAGCAGGGCGGGGUAGGACCCCAGCCCCU` is reported as 1.65.
The log2 enrichment of `AGUCCUGUGCUACACAUCGUAUGUACCGAAUCGGGGCCCCGGGCCCCGGGCCCCGGGAAAGUAUUAUGUUACGCCGUUCGGAUCUGCACU` is reported as -0.512.
For `GUCCUGUGCUACACAUCGUAUGUACCGAAUCGGUUUUUGGUUUUUGGGGUUUUUGGGGAAAGUAUUAUGUUACGCCGUUCGGAUCUGCAC`, the log2 enrichment was -0.713.
`CAAGUCCUGUGCUACACAUCGUAUGUACCGAAUCGGAAAAAGGUUUUUGGUUUGGAAAGUAUUAUGUUACGCCGUUCGGAUCUGCACUUC` gave a log2 enrichment of -1.24.
For `CAAGUCCUGUGCUACACAUCGUAUGUACCGAAUCGGUUUUUUUGGUUUUUGGUGGAAAGUAUUAUGUUACGCCGUUCGGAUCUGCACUUC`, the log2 enrichment was -1.
For `ACCAUGCAGGUGGGCAUCUUUGGGAAGUAGGGCAAGGGGGGGAUAGGGAGGGGGGUAACACUUUGGGAACAGGUGGUCCCAGGUCGUUUC`, the log2 enrichment was 0.961.

Series 4 — technique: RNA Bind-n-Seq; molecule type: RNA; matrix: in vitro; tested at: 365 nM; reference: no-protein control; reading: higher = stronger binding
Target: RNA binding protein fox-1 homolog 2, RRM domain, GST-SBP tag (RBFOX2, Homo sapiens, UniProt O43251-10, residues 100-194)
Setting: natural RNA segment, single round, ends assumed
Constant ends, left off below: GGGAGUUCUACAGUCCGACGAUC … UGGAAUUCUCGGGUGCCAA
Construct (chain): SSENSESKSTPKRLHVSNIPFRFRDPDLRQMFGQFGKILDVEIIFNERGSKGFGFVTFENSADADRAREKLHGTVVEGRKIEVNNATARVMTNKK
Under “RBNS enrichment (R)”, `AGCCCUUGGUACUCCAGAUGUGGUUCCAGGCUCCCUUGUGGGAGCUGGACCGGUCUGGGUUUAAUCUCCCACAAUAAAGAUAAACCCCACGGACCUCACUGCUACUGCUG` is recorded as 0.224.
Under “RBNS enrichment (R)”, `UCUUUUCCCAGCCUUUUGCAGAACACAGUAGACAGAACUGCCACCUUCAAUUGGUACUUUAUUCUUUGCUGCUGUUUUUGUAUAAAAUGACCUAUCCCACGUUUUUGCAU` is recorded as 0.574.
`GCUCCGCAGGUUACCUCAUGGCAUAUCAAAAAUGGCUUUUUUCUUCACUGCGCUCAAGGAAAAAGUCAGAUGGGUGACAAGGUGGUUCUGUUUAGAAGCAGCAGGCAAUG`: “RBNS enrichment (R)” 0.196.
For `UAAACUGUAAGAUGAGCAGGAGAUGAUCACUGGGAGAGAAAGCAUACUGGAUUGAAGGAAGGGCUGUCUCCUUUUAACUUCUUGUUGAUAGUUGCAAGUUCUUUAUGCAC`, “RBNS enrichment (R)” read 0.681.
For `AACUAGACCUAGGAUCUCAAAAGUUUUAAAACUUUGACGUUUUCAUAUGUUUGUUUAUUAAUAGGAUUUUAAAAAAAAUGAACAUCUUUUUAAAGCUGGGAAAUGUAUAU`, “RBNS enrichment (R)” read 0.738.
`CAAUACACAGGCAGUAUUCUAAAAUAGCACUGAACAGGGAGUCAGGAGACUAUUGUCUCCUAAACCCAGGACUAGAGUUCCCUCGUACUGUCACUCCUUUGGUCAUUAAA` — result for “RBNS enrichment (R)”: 0.442.
Under “RBNS enrichment (R)”, `AAGAGAUAUGUACUGCUGGGUACAUGGACAGUAAGUGUGUUUUCAGAUGGAGUACCAGCACCGAAAAUGGGUUGAGGGAGGAUGGGUUGUAUGUAUGUUUCUGCCCACUA` is recorded as 6.18.
`UUGGAGCUUCUCAAGUUUGAGGAUGAGGAAGCUCAGGCAGUGUAUUGGCACUCUAGUGCUCACAUAAUGGGUGAAGCCAUGGAAAGAGUCUAUGGUGGAUGUUUAUGCUA` — result for “RBNS enrichment (R)”: 0.609.
For `GUACUUUAUUACCUGGAAACAUUCUUAAUAGAGAUUCAUUAGAAAACCCAAAUCUAAUGUUCAUGUGUUCAAGGAACCUUCUUCCAUUAUGUAACAGAACAGUCUAGAGA`, “RBNS enrichment (R)” read 0.346.
`GGAUGGCCUCUACGCUGUUCCAUCACAGUCUCCAACUAAGGCUUAUGGUAUUUCAUUAAACUGUUGCAUACCCAGUUAGCACAGUAGGUGGGGAGUCUGCUUCAUUUCUA`: “RBNS enrichment (R)” 0.353.
`ACUGGGCUGGCCUCGAACUCAGAGAUCUGCCUGCCCUUGCUGGGAUCAGAGGUGUGCACCACCACUGCCCAGCUUGAAGUGUGUCAUUUAAAACCACUGUUUAAUAACCC`: “RBNS enrichment (R)” 0.452.
Under “RBNS enrichment (R)”, `AGGGGGACAGCAUAAGGUCUAUGUAAAACCCUUCCCUCUCUGACCCUCUGUUUUCAAAUCUGUAAAAUGGGCAAUAAGACUAGAUGAUUUGUAUAUAGCCCAAUGCAUCU` is recorded as 2.15.

Series 5 — technique: protein binding microarray; molecule type: double-stranded DNA, one strand shown; matrix: in vitro; tested at: not given; reference: not given; reading: higher = stronger binding
Target: Histone acetyltransferase KAT6A, both winged helices, GST fusion (KAT6A, Homo sapiens, UniProt Q92794, residues 1-181)
Setting: 8-mer, flanks averaged, mean of 2 arrays, mostly near background
Target sequence (chain): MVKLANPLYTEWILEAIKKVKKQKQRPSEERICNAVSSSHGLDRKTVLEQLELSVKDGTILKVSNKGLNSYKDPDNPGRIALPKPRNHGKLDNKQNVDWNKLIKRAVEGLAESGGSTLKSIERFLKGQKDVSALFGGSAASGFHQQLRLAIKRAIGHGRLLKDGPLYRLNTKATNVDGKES
The E-score of `CCAGCGCG` is reported as 0.292.
With `TAGACCAA` the E-score was -0.18.
With `AAGTCTTA` the E-score was -0.119.
For `CCCAATTA`, the E-score was -0.113.
`GCGTACAC` has an E-score of 0.168.
For `CACAACAC`, the E-score was 0.0393.
With `ATCGCAGG` the E-score was -0.125.
`AATAGTCT` gave an E-score of -0.148.
The E-score of `GAAACGTC` is reported as -0.0192.
`CGTTCCGC` has an E-score of 0.281.
`CACTACCC` gave an E-score of -0.104.
With `AGCCATGC` the E-score was -0.106.
`AGCAAGGG` has an E-score of -0.17.
For `ACTGTATC`, the E-score was -0.0518.
`CATTTAGA` gave an E-score of -0.12.
`AGGTGCGG` has an E-score of 0.128.
The E-score of `CCGAAGTC` is reported as -0.0111.
`ACATACTA` has an E-score of -0.0966.
`AGAATCGG` has an E-score of 0.156.
`GGCCTGTA` has an E-score of 0.0661.
`TAAACACA` gave an E-score of -0.108.
For `ATGCCGGG`, the E-score was 0.286.
For `TGGTGACA`, the E-score was -0.0488.
For `TTCACAAA`, the E-score was 0.0217.
